Assay results of several laboratories.
Numbered parts are unrelated; each lists some results of a single study. Substitutions count along the parent as printed.

Series 1 — technique: protein-binding microarray; form: double-stranded DNA, one strand shown; sample: in vitro; concentration: 250 nM; notes: 60-bp whole probe; together with: salmon DNA 0.4 mg/ml; baseline: random background probes; direction: higher = stronger binding; shared flanks, not repeated: GCCTAGCAC … GTCTTGATTCGCTTGACGCTGCTG
Target: Interferon regulatory factor 5, full length, phosphomimetic (IRF5, Homo sapiens, UniProt Q13568-2, residues 1-514, K96S/S451D/S453D/S456D/S462D)
With `TTTTCATTTTTTTTCATCATGTGCTAG` the log fluorescence was 3.37 z-score.
The log fluorescence of `GATGATATCAGTCTCGAGACGTGCTAG` is reported as 1.53 z-score.
`TTAGGTCTCCCTTTCCTTTAGTGCTAG` has a log fluorescence of 0.263 z-score.
With `GACAATATCAGTCTCGAGACGTGCTAG` the log fluorescence was 1.26 z-score.
For `GACGATCTCAGTTTCGAAACGTGCTAG`, the log fluorescence was 6.15 z-score.
The log fluorescence of `TTAGGTCTCCTTTTCCTTCAGTGCTAG` is reported as 0.492 z-score.
With `GACGGTATCGCACTGGGGACGTGCTAG` the log fluorescence was 0.377 z-score.
The log fluorescence of `AGATACCTTTAACAGTGCCTGTGCTAG` is reported as 0.102 z-score.
`TTAGGTTTCGGATTTCGGTTAGTGCTA` gave a log fluorescence of 8.27 z-score.
The log fluorescence of `GACGGTTCCCTTTTCCTGGCGTGCTAG` is reported as 0.244 z-score.
`TTAGGACTGGGGTTTCCGTTAGTGCTA` has a log fluorescence of 0.199 z-score.
With `CCACTCTTGCTTTTTAGATCGTGCTAG` the log fluorescence was 0.273 z-score.
The log fluorescence of `CCAGTTCTGGGAAATATTTACGTGCTA` is reported as 0.101 z-score.

Series 2 — technique: RNA Bind-n-Seq; form: RNA; sample: in vitro; concentration: 365 nM; baseline: no-protein control; direction: higher = stronger binding
Target: RNA binding protein fox-1 homolog 2, RRM domain, GST-SBP tag (RBFOX2, Homo sapiens, UniProt O43251-10, residues 100-194)
Notes: natural RNA segment, single round, ends assumed
Residues (chain): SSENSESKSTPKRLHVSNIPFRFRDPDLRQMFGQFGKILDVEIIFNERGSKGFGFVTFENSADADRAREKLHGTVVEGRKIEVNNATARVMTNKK
`GGGAGUUCUACAGUCCGACGAUCGAUGCUGGCACGAGGUUUUUGUCCACUUUUUUCAUAUAUCUGUGUAUAAAAAAAUUGUUGUUUACUAUGGAAUUAGUAUUACAUUUUGAGGUAAACAAAAGAAUUUGUAUUGGAAUUCUCGGGUGCCAA`: “RBNS enrichment (R)” 0.761.
For `GGGAGUUCUACAGUCCGACGAUCUUUUUCAAAGACGAUCCUCCUCAAACACCCAUUUUUACAAUAUCUCUAUUGUAAAAUUUCAUUUUCACUAAGUAACACCCAGUAGAUAAUUCCUAUGGAGCAGUGGUGUUUGGAAUUCUCGGGUGCCAA`, “RBNS enrichment (R)” read 0.394.
`GGGAGUUCUACAGUCCGACGAUCCCACCGGCAGCGUCCAGGUGCGGGGCCGGGAACCACACACCCCACUGGGCCGGCCACAGUCUGGACCCGCACGUCCUGUUCAAAAGCAGACUCGGGAACUGCCUGAAUGUUGGAAUUCUCGGGUGCCAA`: “RBNS enrichment (R)” 3.02.
Under “RBNS enrichment (R)”, `GGGAGUUCUACAGUCCGACGAUCCACGUGCUCUGUUCUCGGGGUUGUUCCAUUCAUGCCUUCUUGGAGGGUGAGGGUGGCUUGGGAACCGACCCAGUGAUCAUGCCUACUUUCUUCUUUGUAUCUCCCUCCUUUGGAAUUCUCGGGUGCCAA` is recorded as 0.335.

Series 3 — technique: RNA Bind-n-Seq; form: RNA; sample: in vitro; concentration: not given; baseline: input RNA pool; direction: higher = stronger binding
Target: RING finger protein unkempt homolog, zinc fingers 1-6, GST-SBP tag (UNK, Homo sapiens, UniProt Q9C0B0, residues 30-357)
Notes: RNA with constant flanks, human and mouse sites, ends assumed
Target sequence (chain): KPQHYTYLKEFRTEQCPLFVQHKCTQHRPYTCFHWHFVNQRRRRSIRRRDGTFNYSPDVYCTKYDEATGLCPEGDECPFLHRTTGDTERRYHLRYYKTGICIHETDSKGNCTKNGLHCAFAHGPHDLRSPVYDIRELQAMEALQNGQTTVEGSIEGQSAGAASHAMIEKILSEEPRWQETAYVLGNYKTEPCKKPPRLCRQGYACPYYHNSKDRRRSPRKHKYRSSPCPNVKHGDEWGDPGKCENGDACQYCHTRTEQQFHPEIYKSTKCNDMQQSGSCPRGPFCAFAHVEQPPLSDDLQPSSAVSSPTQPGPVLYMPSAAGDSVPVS
For `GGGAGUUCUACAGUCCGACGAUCUACACAGUAUUGUUCUUGUAAAACUGUGACAUUCCACAGAGCUACUGCCACAAUCCUUUCUUAGGGUGUCAGGCUCUGAAUCUCUCCAAAUGUGCUGUCUUUGGUUCCUCAUGGCUAUUCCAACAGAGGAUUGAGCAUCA`, the bound/input enrichment was 0.168 ratio.
`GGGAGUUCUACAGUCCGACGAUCGUAUGCCAAGGAACUCACAUUCUCUUCCGGGAAUUCAGCUUUAUACAAGCCACACCUCAUAAUAGAGCAUCAUUCCUUCGGGCCUUCUGGAGAUGCUUCCGAACUGUAGGGAAAAAUGGUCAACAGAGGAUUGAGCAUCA` has a bound/input enrichment of 0.412 ratio.
`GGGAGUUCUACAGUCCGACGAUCAUAACCAUCUAUCGGGAAGAGGGCAUUCUAGGAUUUUUCGCGGGUCUUGUUCCUCGCCUUCUAGGUGACAUCCUUUCUUUGUGGCUGUGUAACUCACUGGCCUACCUCGUCAAUACCUAUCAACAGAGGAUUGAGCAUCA` has a bound/input enrichment of 0.241 ratio.
For `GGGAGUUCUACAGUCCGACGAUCGCCAUUUUCCCAGAUGGGACGCACAACGACACAUGGCAGUGCCAAGGCUACUUCACUGCACUAGAACAAUUUAUCAAGGAAGUGAUCAAGAGUCAUUCUCCCGAAGACAUGACAAAAACACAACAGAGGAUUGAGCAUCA`, the bound/input enrichment was 1.19 ratio.
`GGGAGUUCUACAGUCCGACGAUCCUCAGGUGCUUGACCAAGUACUCCCAGAUCCCUAGUGUCCUGGUCAUGAACAAGGUAGAUUGUUUGAAGCAGAAGUCAGUUCUCCUGGAGCUCACGGCAGCCCUCACUGAAGGUGUGGUCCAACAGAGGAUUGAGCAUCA` gave a bound/input enrichment of 0.43 ratio.
The bound/input enrichment of `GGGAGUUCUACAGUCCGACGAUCAAUGCUGACCUGUUCCGUGGCACACUGGACCCUGUAGAGAAGGCCCUUCGAGAUGCCAAGCUGGACAAGUCACAGAUCCAUGAUAUUGUCUUGGUGGGUGGUUCUACCAGAAUCCCCAAGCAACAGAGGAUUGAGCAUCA` is reported as 0.0693 ratio.

Series 4 — target: CCNB3, cyclin fold, Cln2 fusion (human); technique: yeast growth competition, sequencing; sample: yeast; notes: strong parent motif; baseline: not given; direction: higher = stronger binding
Starting sequence: PKN2 docking peptide (human); VSAVRKLDFSDTM
`VCAVRKLDFSDTM [S2C]` — result for “normalised enrichment score”: 1.69.
For `VGAVRKLDFSDTM [S2G]`, “normalised enrichment score” read 1.58.
For `VSAVRKHDFSDTM [L7H]`, “normalised enrichment score” read 0.0552.
`VSAVRKLDFSDMM [T12M]`: “normalised enrichment score” 1.88.
Under “normalised enrichment score”, `VSAVRKLSFSDTM [D8S]` is recorded as 1.02.
`VSAVRKLDFMDTM [S10M]` — result for “normalised enrichment score”: 0.885.
`VSGVRKLDFSDTM [A3G]` — result for “normalised enrichment score”: 0.278.
For `VSCVRKLDFSDTM [A3C]`, “normalised enrichment score” read 2.89.
`VSAVRKLHFSDTM [D8H]` — result for “normalised enrichment score”: 1.02.
`VSAVRKLDQSDTM [F9Q]` — result for “normalised enrichment score”: -0.262.
For `VLAVRKLDFSDTM [S2L]`, “normalised enrichment score” read 1.4.
`VSAVRDLDFSDTM [K6D]` — result for “normalised enrichment score”: -0.0166.
For `VSAVEKLDFSDTM [R5E]`, “normalised enrichment score” read 0.115.

For quick reference, copied from above (series 3):
`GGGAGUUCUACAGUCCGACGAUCGUAUGCCAAGGAACUCACAUUCUCUUCCGGGAAUUCAGCUUUAUACAAGCCACACCUCAUAAUAGAGCAUCAUUCCUUCGGGCCUUCUGGAGAUGCUUCCGAACUGUAGGGAAAAAUGGUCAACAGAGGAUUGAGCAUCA` has a bound/input enrichment of 0.412 ratio.
The bound/input enrichment of `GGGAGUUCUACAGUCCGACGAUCAAUGCUGACCUGUUCCGUGGCACACUGGACCCUGUAGAGAAGGCCCUUCGAGAUGCCAAGCUGGACAAGUCACAGAUCCAUGAUAUUGUCUUGGUGGGUGGUUCUACCAGAAUCCCCAAGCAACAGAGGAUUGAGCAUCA` is reported as 0.0693 ratio.
`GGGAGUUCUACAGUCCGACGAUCCUCAGGUGCUUGACCAAGUACUCCCAGAUCCCUAGUGUCCUGGUCAUGAACAAGGUAGAUUGUUUGAAGCAGAAGUCAGUUCUCCUGGAGCUCACGGCAGCCCUCACUGAAGGUGUGGUCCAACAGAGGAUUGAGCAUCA` gave a bound/input enrichment of 0.43 ratio.
`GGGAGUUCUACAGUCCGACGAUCAUAACCAUCUAUCGGGAAGAGGGCAUUCUAGGAUUUUUCGCGGGUCUUGUUCCUCGCCUUCUAGGUGACAUCCUUUCUUUGUGGCUGUGUAACUCACUGGCCUACCUCGUCAAUACCUAUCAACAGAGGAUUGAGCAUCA` has a bound/input enrichment of 0.241 ratio.
